Measurements of several laboratories.
Protocols differ between the studies behind these lines. ± marks the error that the study gave.

SMILES = C=CCc1cc2c(c(OC)c1OC)OCO2; target or system = DU-145; assay = cell growth or viability, MTT; conditions = 72 h; quantity = GI50; result = > 250 µM
SMILES = Cc1sc2c(c1C)C(c1ccc(Cl)cc1)=N[C@H](CC(=O)OC(C)(C)C)c1nnc(C)n1-2; target or system = NMC-797; assay = qRT-PCR, refers to: Rad21 and Ran; conditions = 250 nM, 48 h; quantity = mRNA level; result = no effect
SMILES = N=C(N)NCCC[C@@H]1NC(=O)[C@H](CCCCNC(=O)CC[C@H](NC(=O)CCOCCOCCOCCOCCNC(=O)CN2CCN(CC(=O)O)CCN(CC(=O)O)CCN(CC(=O)O)CC2)C(=O)NCCCC[C@@H]2NC(=O)[C@@H](Cc3ccccc3)NC(=O)[C@H](CC(=O)O)NC(=O)CNC(=O)[C@H](CCCNC(=N)N)NC2=O)NC(=O)[C@@H](Cc2ccccc2)NC(=O)[C@H](CC(=O)O)NC(=O)CNC1=O [indium-111 labelled]; test system = female athymic nude mice, lungs; conditions = intravenous, 3 µCi, 0.5 h, U-87 MG glioma xenograft; quantity = tissue uptake; result = 3.01 ± 0.43 %ID/g
SMILES = COc1cc(CNC(=O)C[C@H](C)CCC=C(C)C)ccc1O; target or system = HL-60(TB); assay = SRB; conditions = 10 µM, 48 h; quantity = growth; result = 76.4%
SMILES = CC(=O)OC[C@H]1O[C@@H](Sc2sc(C(=O)c3ccc(C)cc3)c(N)c2-c2nc3ccccc3s2)[C@H](OC(C)=O)[C@@H](OC(C)=O)[C@@H]1OC(C)=O; target or system = HL-60(TB); conditions = 10 µM, 48 h; quantity = growth; result = 80%
SMILES = COc1ccc(-n2cc(C(=O)N3C[C@]4(OC(=O)c5ccccc5NC(C)=O)CC[C@H](OC)[C@@]56[C@@H]4C[C@@H]([C@@H]35)[C@@]3(O)C[C@H](OC)[C@H]4C[C@@H]6[C@]3(O)[C@H]4OC)nn2)cc1; target or system = RAW264.7; assay = NO release, inhibitor, Griess; conditions = 24 h, LPS-stimulated; quantity = IC50; result = 12.9 µM
SMILES = CC[C@H](C)[C@H](NC(=O)[C@H](CCCCN)NC(=O)[C@H](CCCCN)NC(=O)[C@H](C)NC(=O)[C@@H](NC(=O)[C@H](C)NC(=O)[C@H](CC(C)C)NC(=O)[C@H](CC(C)C)NC(=O)[C@H](C)NC(=O)[C@H](CCCCN)NC(=O)[C@H](CC(C)C)NC(=O)[C@H](CC(N)=O)NC(=O)[C@@H](N)CC(C)C)C(C)C)C(=O)N[C@@H](CC(C)C)C(N)=O; target or system = HMEC-1; assay = cell growth or viability, MTT; conditions = 24 h; quantity = IC50; result = 57.1 µM
SMILES = CN[C@](C)(C[18F])C(=O)O; target or system = A549 tumour model; test system = host not given, lung; conditions = 1 h, tumour-bearing; quantity = tracer uptake; result = 1.3 %ID/g
SMILES = COc1cc(CNC(=O)C[C@H](C)CCC=C(C)C)ccc1OCc1cn(-c2ccccc2)nn1; target or system = HL-60(TB); assay = SRB; conditions = 10 µM, 48 h; quantity = growth; result = 93%
SMILES = N=C(N)NCCC[C@@H]1NC(=O)[C@H](CCCCNC(=O)CCOCCOCCOCCOCCNC(=O)CC[C@H](NC(=O)CCOCCOCCOCCOCCNC(=O)CC[C@H](NC(=O)CN2CCN(CC(=O)O)CCN(CC(=O)O)CCN(CC(=O)O)CC2)C(=O)NCCOCCOCCOCCOCCC(=O)N[C@@H](CCC(=O)NCCOCCOCCOCCOCCC(=O)NCCCC[C@@H]2NC(=O)[C@@H](Cc3ccccc3)NC(=O)[C@H](CC(=O)O)NC(=O)CNC(=O)[C@H](CCCNC(=N)N)NC2=O)C(=O)NCCOCCOCCOCCOCCC(=O)NCCCC[C@@H]2NC(=O)[C@@H](Cc3ccccc3)NC(=O)[C@H](CC(=O)O)NC(=O)CNC(=O)[C@H](CCCNC(=N)N)NC2=O)C(=O)NCCOCCOCCOCCOCCC(=O)NCCCC[C@@H]2NC(=O)[C@@H](Cc3ccccc3)NC(=O)[C@H](CC(=O)O)NC(=O)CNC(=O)[C@H](CCCNC(=N)N)NC2=O)NC(=O)[C@@H](Cc2ccccc2)NC(=O)[C@H](CC(=O)O)NC(=O)CNC1=O [indium-111 labelled]; test system = female athymic nude mice, intestine; conditions = intravenous, 3 µCi, 1 h, U-87 MG glioma xenograft; quantity = tissue uptake; result = 11.5 %ID/g
SMILES = CSCC[C@H](NC(=O)[C@H](CC(C)C)NC(=O)[C@H](Cc1c[nH]cn1)NC(=O)CNC(=O)[C@@H](NC(=O)[C@H](C)NC(=O)[C@H](Cc1c[nH]c2ccccc12)NC(=O)[C@H](CCC(N)=O)NC(=O)CCCCCNC(=O)CNC(=O)CNC(=O)CNC(=O)CSC(C)=O)C(C)C)C(N)=O [technetium-99m labelled]; test system = Swiss mouse, liver; conditions = intravenous, 18.5 MBq, 5 min; quantity = tissue uptake; result = 10.1 ± 2.18 %ID/g
SMILES = COc1cc(CNC(=O)C[C@H](C)CCC=C(C)C)ccc1OCc1cn(-c2ccccc2[N+](=O)[O-])nn1; target or system = HL-60(TB); assay = SRB; conditions = 10 µM, 48 h; quantity = growth; result = 47.7%
SMILES = COC[C@@H](NC(C)=O)C(=O)NCc1ccc(N=[N+]=[N-])cc1; target or system = CAD; assay = whole-cell patch clamp; conditions = 100 µM, at -50 mV; quantity = fraction slow-inactivated channels; result = 0.68 ± 0.07
SMILES = CC/C=C\C/C=C\C/C=C\C/C=C\C/C=C\C/C=C\CCC(=O)Nc1ccn(C2OC(CO)C(O)C2(F)F)c(=O)n1 (centres unmarked); target or system = HL-60(TB); quantity = GI50; result = 0.029 µM
SMILES = CC[C@H](C)[C@H](NC(=O)[C@H](C)NC(=O)CNC(=O)[C@H](CCCCN)NC(=O)[C@H](CC(N)=O)NC(=O)[C@H](CO)NC(=O)CN)C(=O)N[C@H](C(=O)NCC(=O)N[C@@H](CC(C)C)C(=O)N[C@@H](CCSC)C(=O)O)[C@@H](C)CC; target or system = rat primary cortical neurons; assay = immunostaining; conditions = 10 µM; how to read = reference: no compound; quantity = BrdU+/NeuN+ cells; result = ~50%
SMILES = COc1cc(CNC(=O)C[C@H](C)CCC=C(C)C)ccc1OCc1cn(-c2cccc([N+](=O)[O-])c2)nn1; target or system = HL-60(TB); assay = SRB; conditions = 10 µM, 48 h; quantity = growth; result = 100%
SMILES = CC(=O)OC[C@H]1O[C@@H](Sc2sc(C(=O)c3ccc(Br)cc3)c(N)c2-c2nc3ccccc3s2)[C@H](OC(C)=O)[C@@H](OC(C)=O)[C@H]1OC(C)=O; target or system = HL-60(TB); conditions = 10 µM, 48 h; quantity = growth; result = 105%
